Assay results collected from several papers.
Each numbered part is a random draw from the data of one study; scales do not carry over between parts. ± gives the spread as reported.
UniProt P10721, sequence (whole entry, unmodified, looked up): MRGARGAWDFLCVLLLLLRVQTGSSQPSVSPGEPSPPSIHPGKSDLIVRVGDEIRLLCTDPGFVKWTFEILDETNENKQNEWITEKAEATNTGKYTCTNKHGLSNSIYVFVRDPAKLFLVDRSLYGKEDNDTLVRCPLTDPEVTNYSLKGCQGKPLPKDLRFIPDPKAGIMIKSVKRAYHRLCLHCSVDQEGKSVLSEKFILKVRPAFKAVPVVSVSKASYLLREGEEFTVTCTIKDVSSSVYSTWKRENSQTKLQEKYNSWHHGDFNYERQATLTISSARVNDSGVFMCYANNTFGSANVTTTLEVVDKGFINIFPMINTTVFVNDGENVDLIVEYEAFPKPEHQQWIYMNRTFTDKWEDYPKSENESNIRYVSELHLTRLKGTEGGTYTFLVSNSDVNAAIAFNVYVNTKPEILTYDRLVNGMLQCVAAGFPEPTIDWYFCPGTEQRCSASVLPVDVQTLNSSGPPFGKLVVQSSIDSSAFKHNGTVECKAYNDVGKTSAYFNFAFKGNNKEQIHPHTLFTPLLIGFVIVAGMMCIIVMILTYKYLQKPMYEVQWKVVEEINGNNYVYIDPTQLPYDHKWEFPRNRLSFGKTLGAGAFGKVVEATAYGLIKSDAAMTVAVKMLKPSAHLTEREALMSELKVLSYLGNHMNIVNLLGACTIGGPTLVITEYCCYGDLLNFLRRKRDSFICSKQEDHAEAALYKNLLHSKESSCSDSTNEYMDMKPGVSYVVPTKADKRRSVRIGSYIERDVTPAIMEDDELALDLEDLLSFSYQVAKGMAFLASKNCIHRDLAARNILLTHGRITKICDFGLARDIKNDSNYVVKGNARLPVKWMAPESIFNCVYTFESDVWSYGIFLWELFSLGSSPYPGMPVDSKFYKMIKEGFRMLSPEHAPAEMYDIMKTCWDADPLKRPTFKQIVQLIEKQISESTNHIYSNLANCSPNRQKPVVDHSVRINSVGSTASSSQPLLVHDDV
UniProt P54756, sequence (whole entry, looked up): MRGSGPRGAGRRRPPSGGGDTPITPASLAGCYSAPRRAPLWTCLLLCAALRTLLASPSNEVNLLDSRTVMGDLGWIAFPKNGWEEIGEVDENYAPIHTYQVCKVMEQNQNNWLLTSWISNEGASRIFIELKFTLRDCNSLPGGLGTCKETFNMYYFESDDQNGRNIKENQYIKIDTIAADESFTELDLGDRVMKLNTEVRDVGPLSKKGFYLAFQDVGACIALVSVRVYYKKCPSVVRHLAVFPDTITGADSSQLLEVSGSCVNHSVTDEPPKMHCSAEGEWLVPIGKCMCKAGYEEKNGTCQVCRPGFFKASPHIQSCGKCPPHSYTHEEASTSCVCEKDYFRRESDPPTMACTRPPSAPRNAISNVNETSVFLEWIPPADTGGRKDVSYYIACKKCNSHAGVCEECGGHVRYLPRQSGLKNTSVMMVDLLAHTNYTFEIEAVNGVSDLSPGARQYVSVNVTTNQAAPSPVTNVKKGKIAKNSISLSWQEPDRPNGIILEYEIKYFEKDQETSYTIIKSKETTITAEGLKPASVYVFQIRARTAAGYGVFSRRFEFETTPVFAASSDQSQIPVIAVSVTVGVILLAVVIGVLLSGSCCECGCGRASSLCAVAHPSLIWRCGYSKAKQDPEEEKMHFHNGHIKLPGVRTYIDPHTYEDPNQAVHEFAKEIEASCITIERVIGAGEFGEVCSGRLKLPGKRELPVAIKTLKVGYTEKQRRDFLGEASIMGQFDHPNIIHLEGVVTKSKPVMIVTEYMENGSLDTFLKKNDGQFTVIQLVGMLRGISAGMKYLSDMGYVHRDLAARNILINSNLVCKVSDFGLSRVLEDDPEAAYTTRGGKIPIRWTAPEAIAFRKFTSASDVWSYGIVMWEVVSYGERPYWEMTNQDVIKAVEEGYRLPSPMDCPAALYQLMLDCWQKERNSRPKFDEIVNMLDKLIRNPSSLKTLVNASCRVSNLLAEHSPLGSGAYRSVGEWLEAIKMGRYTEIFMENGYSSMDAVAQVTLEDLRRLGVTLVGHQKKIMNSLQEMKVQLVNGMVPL
UniProt Q9NYY3, sequence (whole entry, looked up): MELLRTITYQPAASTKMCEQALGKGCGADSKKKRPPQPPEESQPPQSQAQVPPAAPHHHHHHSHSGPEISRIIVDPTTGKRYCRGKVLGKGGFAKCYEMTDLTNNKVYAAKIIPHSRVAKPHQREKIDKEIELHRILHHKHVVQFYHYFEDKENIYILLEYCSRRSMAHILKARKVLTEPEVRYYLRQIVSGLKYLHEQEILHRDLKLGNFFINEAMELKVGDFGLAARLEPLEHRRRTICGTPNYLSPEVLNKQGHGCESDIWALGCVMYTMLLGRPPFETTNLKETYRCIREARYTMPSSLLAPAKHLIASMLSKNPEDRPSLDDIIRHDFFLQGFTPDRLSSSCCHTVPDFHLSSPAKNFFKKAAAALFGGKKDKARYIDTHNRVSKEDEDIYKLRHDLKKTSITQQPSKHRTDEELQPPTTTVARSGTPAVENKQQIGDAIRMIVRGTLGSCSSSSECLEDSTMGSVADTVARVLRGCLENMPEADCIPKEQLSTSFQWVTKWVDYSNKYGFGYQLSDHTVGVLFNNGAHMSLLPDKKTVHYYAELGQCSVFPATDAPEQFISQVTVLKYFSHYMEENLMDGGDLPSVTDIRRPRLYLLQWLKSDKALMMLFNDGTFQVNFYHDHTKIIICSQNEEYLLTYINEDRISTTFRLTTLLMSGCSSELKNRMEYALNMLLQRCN
UniProt Q9C098, sequence (whole entry, looked up): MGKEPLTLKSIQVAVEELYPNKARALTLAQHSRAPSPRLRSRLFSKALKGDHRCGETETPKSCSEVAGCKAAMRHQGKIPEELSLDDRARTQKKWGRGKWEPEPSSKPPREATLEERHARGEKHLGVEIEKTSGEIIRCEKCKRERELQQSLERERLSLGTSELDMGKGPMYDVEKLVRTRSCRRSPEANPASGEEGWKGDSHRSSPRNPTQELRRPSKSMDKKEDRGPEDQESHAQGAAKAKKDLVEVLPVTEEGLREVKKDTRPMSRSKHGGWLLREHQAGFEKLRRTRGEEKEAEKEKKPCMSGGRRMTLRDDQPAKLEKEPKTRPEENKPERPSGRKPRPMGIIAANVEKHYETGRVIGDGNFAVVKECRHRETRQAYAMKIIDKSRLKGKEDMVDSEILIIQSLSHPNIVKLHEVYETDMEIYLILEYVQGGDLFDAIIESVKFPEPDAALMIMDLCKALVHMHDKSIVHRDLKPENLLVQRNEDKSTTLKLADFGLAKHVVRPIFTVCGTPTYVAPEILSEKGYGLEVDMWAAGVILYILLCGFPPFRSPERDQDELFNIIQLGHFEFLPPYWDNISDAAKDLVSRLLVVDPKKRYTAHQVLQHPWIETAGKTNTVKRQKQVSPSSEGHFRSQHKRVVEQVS
UniProt Q8TDC3, sequence (whole entry, looked up): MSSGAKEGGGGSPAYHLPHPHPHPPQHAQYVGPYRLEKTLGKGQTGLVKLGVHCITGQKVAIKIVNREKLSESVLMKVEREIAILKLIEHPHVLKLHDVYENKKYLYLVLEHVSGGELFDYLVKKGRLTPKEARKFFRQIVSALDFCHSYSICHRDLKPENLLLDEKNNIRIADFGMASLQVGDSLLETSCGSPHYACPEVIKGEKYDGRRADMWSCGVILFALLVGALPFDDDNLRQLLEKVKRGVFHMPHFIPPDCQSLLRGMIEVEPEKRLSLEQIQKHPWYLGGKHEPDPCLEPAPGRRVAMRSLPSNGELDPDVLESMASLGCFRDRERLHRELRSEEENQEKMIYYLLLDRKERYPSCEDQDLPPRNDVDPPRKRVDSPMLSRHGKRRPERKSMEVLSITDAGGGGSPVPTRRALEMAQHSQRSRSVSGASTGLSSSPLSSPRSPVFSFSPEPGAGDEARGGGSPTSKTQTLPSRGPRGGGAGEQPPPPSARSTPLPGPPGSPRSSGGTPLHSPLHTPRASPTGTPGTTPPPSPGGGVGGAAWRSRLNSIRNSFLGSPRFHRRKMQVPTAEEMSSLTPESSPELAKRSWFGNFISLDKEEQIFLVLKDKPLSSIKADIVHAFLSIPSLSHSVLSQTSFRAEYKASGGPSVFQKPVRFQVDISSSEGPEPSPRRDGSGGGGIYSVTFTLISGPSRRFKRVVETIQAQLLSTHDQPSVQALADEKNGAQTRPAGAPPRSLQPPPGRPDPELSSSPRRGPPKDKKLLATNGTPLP
UniProt O15264, sequence (whole entry, looked up): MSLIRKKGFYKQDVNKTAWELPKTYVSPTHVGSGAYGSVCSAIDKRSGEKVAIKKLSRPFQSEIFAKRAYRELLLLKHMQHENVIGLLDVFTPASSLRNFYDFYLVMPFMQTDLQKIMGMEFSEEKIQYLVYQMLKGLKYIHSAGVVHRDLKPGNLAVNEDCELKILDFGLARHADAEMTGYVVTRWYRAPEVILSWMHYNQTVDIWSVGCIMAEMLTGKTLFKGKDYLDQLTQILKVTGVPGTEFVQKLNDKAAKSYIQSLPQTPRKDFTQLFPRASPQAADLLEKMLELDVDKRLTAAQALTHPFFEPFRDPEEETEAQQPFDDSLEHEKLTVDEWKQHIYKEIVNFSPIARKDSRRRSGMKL
UniProt P07948, sequence (whole entry, looked up): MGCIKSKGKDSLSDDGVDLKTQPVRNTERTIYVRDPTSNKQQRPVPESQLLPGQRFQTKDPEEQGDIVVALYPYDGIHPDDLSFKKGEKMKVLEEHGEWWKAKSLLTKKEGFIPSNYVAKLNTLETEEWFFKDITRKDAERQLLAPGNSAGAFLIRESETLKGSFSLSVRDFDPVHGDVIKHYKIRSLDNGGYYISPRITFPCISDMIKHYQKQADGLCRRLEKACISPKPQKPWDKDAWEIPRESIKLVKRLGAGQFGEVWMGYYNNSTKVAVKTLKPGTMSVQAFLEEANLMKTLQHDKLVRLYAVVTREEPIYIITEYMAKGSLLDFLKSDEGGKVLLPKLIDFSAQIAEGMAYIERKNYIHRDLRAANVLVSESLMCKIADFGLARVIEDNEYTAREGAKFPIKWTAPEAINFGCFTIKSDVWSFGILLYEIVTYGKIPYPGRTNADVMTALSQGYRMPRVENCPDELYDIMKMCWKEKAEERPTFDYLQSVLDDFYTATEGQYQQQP

Sample 1
SMILES: CC(=O)N[C@@H](Cc1c[nH]c2ccccc12)C(=O)N[C@@H](CCC(=O)C=[N+]=[N-])C(=O)OC(C)C
Matrix: EL4 tumour
Dose: dose not given
Relative to: vehicle
technique | refers to | species | fold change
 | 3-hydroxykynurenine | mouse, EL4 tumour-bearing | 0.261
 | 6-phosphogluconate | mouse, EL4 tumour-bearing | 2.04
metabolomics | cytidine 2'-monophosphate | mouse | 3.12
 | galactonate | mouse, EL4 tumour-bearing | 2.09
 | cinnamoylglycine | mouse, EL4 tumour-bearing | 2.08
 | carnosine | mouse, EL4 tumour-bearing | 4.8
 | phenyllactate | mouse, EL4 tumour-bearing | 0.414
metabolomics | guanosine 3'-monophosphate | mouse | 2.56
metabolomics | N2,N2-dimethylguanosine | mouse | 0.425
 | fructose | mouse, EL4 tumour-bearing | 3.36

Sample 2
Compound: COc1cc(C(=O)N2CCC(N3CCN(C)CC3)CC2)ccc1Nc1ncc2c(n1)N(C)c1ccccc1C(=O)N2C
Read-out: kinase activity
target | concentration | remaining activity
JNK2 | 1 µM | 79 ± 3%
PIM3 | 1 µM | 97 ± 1%
PHK | 10 µM | 59 ± 2%
MELK | 1 µM | 88 ± 8%
SmMLCK | 1 µM | 76 ± 8%
PIM2 | 10 µM | 97 ± 5%
MST2 | 1 µM | 100 ± 12%
PAK4 | 10 µM | 108 ± 10%
NEK2a | 1 µM | 92 ± 5%
PKCz | 1 µM | 94 ± 6%

Sample 3
SMILES: Nc1cnc(N2CCc3cc(S(=O)(=O)Nc4c(F)cc(Cl)cc4F)cc(N4CCCC4=O)c32)nc1
Read-out: cell-free assay
Technique: competition with immobilised ligand
Concentration: 1 µM
target | remaining binding [%]
Tyrosine-protein kinase ABL1, non-phosphorylated (ABL1, Homo sapiens, UniProt P00519, H396P) | 94
Cytoplasmic tyrosine-protein kinase BMX (BMX, Homo sapiens, UniProt P51813) | 100
Serine/threonine-protein kinase Nek10 (NEK10, Homo sapiens, UniProt Q6ZWH5) | 100
1-phosphatidylinositol 3-phosphate 5-kinase (PIKFYVE, Homo sapiens, UniProt Q9Y2I7) | 100
Homeodomain-interacting protein kinase 2 (HIPK2, Homo sapiens, UniProt Q9H2X6) | 100
Tyrosine-protein kinase Yes (YES1, Homo sapiens, UniProt P07947) | 100
Serine/threonine-protein kinase BRSK1 (BRSK1, Homo sapiens, UniProt Q8TDC3) | 100
Ephrin type-A receptor 5 (EPHA5, Homo sapiens, UniProt P54756) | 100
Receptor-interacting serine/threonine-protein kinase 1 (RIPK1, Homo sapiens, UniProt Q13546) | 92
Cyclin-dependent kinase-like 1 (CDKL1, Homo sapiens, UniProt Q00532) | 85
Epidermal growth factor receptor (EGFR, Homo sapiens, UniProt P00533, L861Q) | 100
Serine/threonine-protein kinase N1 (PKN1, Homo sapiens, UniProt Q16512) | 95
Mast/stem cell growth factor receptor Kit (KIT, Homo sapiens, UniProt P10721, A829P) | 100
Dual specificity tyrosine-phosphorylation-regulated kinase 1A (DYRK1A, Homo sapiens, UniProt Q13627) | 80
Serine/threonine-protein kinase PLK2 (PLK2, Homo sapiens, UniProt Q9NYY3) | 100
Dual specificity protein kinase CLK4 (CLK4, Homo sapiens, UniProt Q9HAZ1) | 89
Serine/threonine-protein kinase DCLK3 (DCLK3, Homo sapiens, UniProt Q9C098) | 85
Mast/stem cell growth factor receptor Kit (KIT, Homo sapiens, UniProt P10721, T670I/V559D) | 100
Citron Rho-interacting kinase (CIT, Homo sapiens, UniProt O14578) | 91
Epidermal growth factor receptor (EGFR, Homo sapiens, UniProt P00533, del752-759) | 100

Sample 4
SMILES: O=Nc1c(-c2c(O)[nH]c3cc(Br)ccc23)[nH]c2ccccc12
Read-out: enzyme activity
Action: inhibitor
Concentration: 0.5 µM
Relative to: control
target | remaining activity [%]
MAP kinase-interacting serine/threonine-protein kinase 2 (MKNK2, Homo sapiens, UniProt Q9HBH9) | 75.3
Leucine-rich repeat serine/threonine-protein kinase 2 (LRRK2, Homo sapiens, UniProt Q5S007) | 95.3
Mitogen-activated protein kinase 13 (MAPK13, Homo sapiens, UniProt O15264) | 87.5
Tyrosine-protein kinase BTK (BTK, Homo sapiens, UniProt Q06187) | 13.1
Cyclin-dependent kinase 9, with cyclin T1 (CDK9, Homo sapiens, UniProt P50750) | 68.2
Protein kinase C delta type (PRKCD, Homo sapiens, UniProt Q05655) | 103
Protein kinase C iota type (PRKCI, Homo sapiens, UniProt P41743) | 97.3
cGMP-dependent protein kinase 1 (PRKG1, Homo sapiens, UniProt Q13976) | 89
Mitogen-activated protein kinase kinase kinase 10 (MAP3K10, Homo sapiens, UniProt Q02779) | 92.1
Serine/threonine-protein kinase PLK2 (PLK2, Homo sapiens, UniProt Q9NYY3) | 98.9
Ephrin type-A receptor 5 (EPHA5, Homo sapiens, UniProt P54756) | 70.4
Dual specificity mitogen-activated protein kinase kinase 6 (MAP2K6, Homo sapiens, UniProt P52564) | 98.2
Serine/threonine-protein kinase Chk1 (CHEK1, Homo sapiens, UniProt O14757) | 57.1
Serine/threonine-protein kinase WNK2 (WNK2, Homo sapiens, UniProt Q9Y3S1) | 104
Serine/threonine-protein kinase Nek4 (NEK4, Homo sapiens, UniProt P51957) | 96.7
Tyrosine-protein kinase Lyn (LYN, Homo sapiens, UniProt P07948) | 5.98
Mast/stem cell growth factor receptor Kit (KIT, Homo sapiens, UniProt P10721) | 42.3
Interleukin-1 receptor-associated kinase 4 (IRAK4, Homo sapiens, UniProt Q9NWZ3) | 90.1
RAC-gamma serine/threonine-protein kinase (AKT3, Homo sapiens, UniProt Q9Y243) | 89.4
Mitogen-activated protein kinase 12 (MAPK12, Homo sapiens, UniProt P53778) | 93.8
Mitogen-activated protein kinase kinase kinase kinase 2 (MAP4K2, Homo sapiens, UniProt Q12851) | 61.5
Casein kinase II subunit alpha (CSNK2A1, Homo sapiens, UniProt P68400) | 82.2

Repeated from above (sample 2):
target | concentration | remaining activity
PHK | 10 µM | 59 ± 2%
MELK | 1 µM | 88 ± 8%
SmMLCK | 1 µM | 76 ± 8%
